Results collected from several papers.
≈ marks a conversion by molar mass, not a printed value. Where no end group is shown, it is not given here.

`CCCCCCCOc1c(OC)cc(NC(C)CCCN)c2nc(C(C)(C)C)cc(C)c12` (stereo not drawn) gave an IC50 of 1.38 µg/mL (Staphylococcus aureus; microbial growth; ATCC33591 MRSA; drug-resistant strain).
`O=C(CN1c2c(n[nH]c2-c2cccc(Cl)c2)-c2ccccc2S1(=O)=O)NN=Cc1ccc(Cl)cc1Cl` gave an EC90 of 76.3 µM (HIV-1; viral replication; PBMC).
`guanidine hydrochloride` has an IC50 of 592 µM (coxsackievirus B3; cytopathic effect; HeLa, wild type; 48 h).
`TAVDHVFLRF-NH2 (C-amide)` gave an inhibition of 95% (Drosophila melanogaster; heart rate; adult heart; 40 nL injected, 1 µM, 10 min; reference: DMS).
`OCCn1c(Cl)nc2cc(Br)c(Br)cc21` gave an inhibition of 88.5% (Human immunodeficiency virus 1; viral replication, inhibitor; TZM-bl; 5 µg/mL).
`CC[C@H](C)[C@H](N)C(=O)N[C@@H](CC(C)C)C(=O)N1CCC[C@H]1C(=O)N[C@@H](Cc1c[nH]c2ccccc12)C(=O)N[C@@H](CCCCN)C(=O)N[C@@H](Cc1c[nH]c2ccccc12)C(=O)N1CCC[C@H]1C(=O)N[C@@H](Cc1c[nH]c2ccccc12)C(=O)N[C@@H](Cc1c[nH]c2ccccc12)C(=O)N1CCC[C@H]1C(=O)N[C@@H](Cc1c[nH]c2ccccc12)C(=O)N[C@@H](CCCNC(=N)N)C(=O)N[C@@H](CCCNC(=N)N)C(N)=O` has an MIC range of 1 to 8 µg/mL (≈ 0.525 to 4.2 µM) (Staphylococcus aureus; broth microdilution; methicillin-susceptible clinical isolates, Mueller-Hinton broth; 18 h, 35 °C).
`CCCCCn1c(=O)[nH]c2cc(C(=O)NCCCN3CCC(C)CC3)ccc2c1=O` gave a maximal response of -76% (Hepatitis C virus; HCV infection, Gaussia luciferase reporter; Huh7.5.1 reporter cells; reference: 10 µM cyclosporin A, DMSO, negative means inhibition).
`Cc1ccc(C(=O)N/N=C/c2ccccc2Cl)cc1` has an MIC of 24.5 µM (≈ 6.69 µg/mL) (Candida albicans, Aspergillus niger; fungal growth).
Under “time to 1 log10 kill”, `O=C/C=C/c1ccccc1` is recorded as 7 h (Cryptococcus neoformans; CN, PBS; 2 x MIC, up to 48 h, 37 °C; reference: untreated).
The MBC of `CCCCCOc1c(OC)cc(NC(C)CCCNC(=O)C(N)CCCNC(=N)N)c2nc(C(C)(C)C)ccc12` (stereo not drawn) is reported as 20 µg/mL (≈ 35.9 µM) (Staphylococcus aureus; microbial killing; ATCC33591 MRSA; drug-resistant strain).
The viral yield of `TRTRVSRLY` is reported as 66.2% (rhesus rotavirus; peptide, mouse cholangiocytes; 1 mM, 18 h, 37 °C; reference: medium control).
With `CP(=O)(O)CCC(N)C(=O)O` (stereo not drawn) the herbicidal activity was 40% (Chenopodium album; 60 g/ha, 13 days, CHEAL, post-emergence spray; reference: untreated (0%), complete kill (100%)).
For `CC[C@H](C)[C@H](NC(=O)[C@H](CC(C)C)NC(=O)[C@H](Cc1c[nH]cn1)NC(=O)[C@H](Cc1c[nH]cn1)NC(=O)[C@@H](NC(=O)[C@H](Cc1ccccc1)NC(=O)[C@H](Cc1c[nH]cn1)NC(=O)[C@H](Cc1c[nH]c2ccccc12)NC(=O)[C@@H](NC(=O)[C@H](Cc1c[nH]cn1)NC(=O)[C@H](Cc1c[nH]cn1)NC(=O)[C@H](Cc1c[nH]c2ccccc12)NC(=O)[C@@H](N)CC(C)C)[C@@H](C)CC)C(C)C)C(N)=O`, the infectivity reduction was 81.9% (herpes simplex virus 1; extracellular virus, plaque; Vero, F; concentration not given, 24 h post-infection, added after entry).
`ADVDHVFLRF-NH2 (C-amide)` gave an inhibition of 95% (Drosophila melanogaster; gut contraction; wandering third instar larval gut; injection, 1 µM, within 10 min; reference: DMS effect).
The MBC of `CCCCOc1c(OC)cc(NC(C)CCCNC(=O)C(N)CCCCN)c2nc(C(C)(C)C)ccc12` (stereo not drawn) is reported as over 20 µg/mL (Staphylococcus aureus; MRSA ATCC 33591).
